Experimental data gathered from unrelated publications.
Compare with care: the assays were run in different laboratories. Numbers after ± are the reported error.
Cell line: Jurkat

Cc1n[nH]c(C)c1CSc1ccccc1 — selectivity index (cytotoxicity; baseline: IC50 HEK293 over IC50 Jurkat): 1.5
c1cc(N2CCCC2)ccc1-c1cc2ncc(OCC3CCNCC3)nc2cc1-c1ccc(N2CCCC2)cc1 — EC50 (cell growth, XTT; 7 days): 18600 ± 600 nM
C=CC(=O)N1CCCN(C(=O)c2cc(Sc3cnc(NC(=O)C4CC4)s3)c(C)cc2OC)C[C@H]1C — IC50 (IL-2 secretion; washout after 2 h preincubation, added: TCR stimulation): 136 nM
NC[C@@H](OCC(=O)N1CCC[C@H](C(=O)NCc2nc(-c3ccc(C(F)(F)F)cc3)cs2)C1)c1ccccc1 — EC50 (cytotoxicity): ~10000 nM
Cc1ccc(-c2cc3ccccc3c(N)n2)cc1 — early apoptotic cells (annexin V-FITC/PI flow cytometry, item: annexin V+ PI-; 2.5 µM, 72 h): 10.5%
c1ccc(Oc2ccc(Nc3ccc4ncc(OCC5CCNCC5)nc4c3)cc2)cc1 — EC50 (cell growth, XTT; 7 days): 840 ± 120 nM
Cc1n[nH]c(C)c1CSc1ccc(O)cc1 — selectivity index (cytotoxicity; baseline: IC50 HEK293 over IC50 Jurkat): 1.8
c1cc(N2CCCCC2)ccc1Nc1cc2ncc(OCC3CCNCC3)nc2cc1-c1ccc(N2CCCCC2)cc1 — EC50 (cell growth, XTT; 7 days): 1400 ± 190 nM
[Fe+2].c1cc[cH-]c1.c1cc[cH-]c1 — IC50 (viability, Annexin V-/PI- cells, flow cytometry; 48 h): > 100000 nM

A few entries again:
c1cc(N2CCCCC2)ccc1Nc1cc2ncc(OCC3CCNCC3)nc2cc1-c1ccc(N2CCCCC2)cc1 — EC50 (cell growth, XTT; 7 days): 1400 ± 190 nM
